# Published values gathered from unrelated publications.
# Numbered parts are unrelated; each lists some results of a single study. Changes are numbered by the printed parent chain.

# Study 1
# Target: CCND1, cyclin fold, Cln2 fusion (human)
# Technique: yeast growth competition, sequencing
# Matrix: yeast
# Notes: weak parent motif
# Baseline: not given
# Reading: higher = stronger binding
# Starting sequence: viral docking peptide; KKAKRRLFTISDS; partner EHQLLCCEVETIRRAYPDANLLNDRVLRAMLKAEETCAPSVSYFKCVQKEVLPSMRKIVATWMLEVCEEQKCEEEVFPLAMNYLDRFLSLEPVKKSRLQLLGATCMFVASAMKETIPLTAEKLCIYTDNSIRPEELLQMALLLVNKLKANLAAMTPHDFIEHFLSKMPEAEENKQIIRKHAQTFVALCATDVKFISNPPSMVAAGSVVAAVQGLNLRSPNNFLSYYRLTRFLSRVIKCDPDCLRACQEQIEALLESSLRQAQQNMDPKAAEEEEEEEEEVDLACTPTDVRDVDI
Variant,normalised enrichment score
F8L,0.25
S13A,0.214
T9A,0.395
L7A,-0.188
S11A,0.789
K4A,-0.0298

# Study 2
# Target: Phosphate system positive regulatory protein PHO4, full length, GST-tagged (PHO4, Saccharomyces cerevisiae, UniProt P07270, residues 1-312)
# Technique: competition protein-binding microarray
# Molecule type: double-stranded DNA, one strand shown
# Matrix: in vitro
# Tested at: 2 µM
# Notes: whole 60-bp probe, lowest competitor level
# Added: Cbf1 competitor, 0.05 µM
# Reading: higher = stronger binding
# Construct (chain): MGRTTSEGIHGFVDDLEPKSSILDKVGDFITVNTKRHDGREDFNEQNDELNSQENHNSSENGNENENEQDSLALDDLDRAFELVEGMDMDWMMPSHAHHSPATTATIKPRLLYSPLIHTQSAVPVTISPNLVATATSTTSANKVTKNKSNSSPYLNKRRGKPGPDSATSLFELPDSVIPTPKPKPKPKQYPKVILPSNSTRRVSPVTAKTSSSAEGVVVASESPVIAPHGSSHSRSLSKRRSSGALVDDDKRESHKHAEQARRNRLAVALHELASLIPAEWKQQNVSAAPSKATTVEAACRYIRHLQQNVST
Oligonucleotide,fluorescence intensity [a.u.]
CTTTCCCGATCTTGGCACGTGGGTGTAGCACATTTGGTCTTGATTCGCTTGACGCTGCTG,18700
TTTGTTCCTTGGAACCACATGATTTACTCAACAAATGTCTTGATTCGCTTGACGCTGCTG,6910
CATCAGCATGGTACCCTCGTGTTTTCTGCAGCGAGAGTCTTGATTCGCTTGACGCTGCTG,11700
ATTCTTGGTACTTTAGTCGTGATTGTTTGACATGCCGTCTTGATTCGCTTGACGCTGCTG,5280
GCTAATGCCCATTTGCACGTTCTAATAATGAAGGTCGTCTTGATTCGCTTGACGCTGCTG,11300
CTAACGAAGGTTTTGCACGTGTTTTACAAGCCAAGTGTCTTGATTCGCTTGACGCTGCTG,18500
TTTATCGGTGCCGGCCACGTGGGTACCTCTTGCGAAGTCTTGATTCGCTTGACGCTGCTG,19600
TGCGCAACAACTTTTCACGTGCCGTTATGTCTAGAAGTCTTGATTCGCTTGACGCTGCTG,14400

# Study 3
# Target: inorganic phosphate, free oxyanion
# Technique: microfluidic competitive inhibition
# Matrix: in vitro, cell-free expressed
# Tested at: not given
# Notes: derived from inhibition constants, unchanged parent 615000 nM
# Reading: lower = stronger binding
# Starting sequence: PafA, mature enzyme, eGFP fusion (Elizabethkingia meningoseptica, UniProt Q9KJX5); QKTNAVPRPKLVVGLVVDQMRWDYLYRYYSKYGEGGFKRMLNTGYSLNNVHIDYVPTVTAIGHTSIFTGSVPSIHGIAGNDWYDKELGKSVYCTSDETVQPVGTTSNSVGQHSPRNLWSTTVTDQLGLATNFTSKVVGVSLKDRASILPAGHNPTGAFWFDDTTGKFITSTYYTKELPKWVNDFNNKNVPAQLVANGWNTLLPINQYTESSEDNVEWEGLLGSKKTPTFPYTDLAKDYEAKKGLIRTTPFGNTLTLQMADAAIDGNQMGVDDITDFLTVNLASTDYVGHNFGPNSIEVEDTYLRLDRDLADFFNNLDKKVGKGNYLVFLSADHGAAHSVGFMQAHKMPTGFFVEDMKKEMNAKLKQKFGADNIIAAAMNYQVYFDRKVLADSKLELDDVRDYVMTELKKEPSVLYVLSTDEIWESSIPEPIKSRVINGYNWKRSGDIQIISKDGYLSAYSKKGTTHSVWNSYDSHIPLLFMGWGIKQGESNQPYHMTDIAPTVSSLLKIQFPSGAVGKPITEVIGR
Variant,phosphate dissociation constant
T247G,449 µM
D498G,379 µM
L25G,537 µM
L41G,466 µM
A282G,1010 µM
R27V,588 µM
D308G,595 µM
D371G,495 µM
E424G,739 µM
M378V,620 µM
T465G,397 µM
S513G,361 µM
V435A,678 µM
V99G,742 µM
D213G,164 µM
D162G,1070 µM
Y455V,627 µM
L364G,494 µM
Q510G,466 µM
N491V,607 µM
D453V,314 µM
F67G,346 µM
L234G,433 µM
K224G,544 µM
R307V,660 µM

# Study 4
# Target: Prothrombin, mature alpha-thrombin (F2, Homo sapiens, UniProt P00734)
# Technique: aptamer microarray, sandwich
# Molecule type: DNA with 2'F-ANA
# Matrix: in vitro
# Tested at: 200 nM
# Notes: whole 15-mer aptamer, many near background
# Added: Cy3 exosite-II aptamer, 400 nM
# Reading: higher = stronger binding
# Oligonucleotide: GGTTGGTGTGGTTGG
Modification,mean fluorescence intensity [a.u.]
2'F-ANA at 2 5 6 7 8 9 14 15,46.5
2'F-ANA at 1 3 5 7 8 9 10 11 13 14,53.4
2'F-ANA at 1 3 4 5 6 7 9 10 11 13,46.7
2'F-ANA at 5 6 8 9 11 15,63.5
2'F-ANA at 1 2 3 10 11 12 13 14,65.8
2'F-ANA at 1 2 4 5 6 7 11 13 14 15,49.7
2'F-ANA at 2 3 4 6 7 8 9 12 13,554
2'F-ANA at 2 5 9 10 15,48.3

# Study 5
# Target: Muscarinic acetylcholine receptor M3 (CHRM3, Homo sapiens, UniProt P20309)
# Chain of UniProt P20309 (whole entry, looked up): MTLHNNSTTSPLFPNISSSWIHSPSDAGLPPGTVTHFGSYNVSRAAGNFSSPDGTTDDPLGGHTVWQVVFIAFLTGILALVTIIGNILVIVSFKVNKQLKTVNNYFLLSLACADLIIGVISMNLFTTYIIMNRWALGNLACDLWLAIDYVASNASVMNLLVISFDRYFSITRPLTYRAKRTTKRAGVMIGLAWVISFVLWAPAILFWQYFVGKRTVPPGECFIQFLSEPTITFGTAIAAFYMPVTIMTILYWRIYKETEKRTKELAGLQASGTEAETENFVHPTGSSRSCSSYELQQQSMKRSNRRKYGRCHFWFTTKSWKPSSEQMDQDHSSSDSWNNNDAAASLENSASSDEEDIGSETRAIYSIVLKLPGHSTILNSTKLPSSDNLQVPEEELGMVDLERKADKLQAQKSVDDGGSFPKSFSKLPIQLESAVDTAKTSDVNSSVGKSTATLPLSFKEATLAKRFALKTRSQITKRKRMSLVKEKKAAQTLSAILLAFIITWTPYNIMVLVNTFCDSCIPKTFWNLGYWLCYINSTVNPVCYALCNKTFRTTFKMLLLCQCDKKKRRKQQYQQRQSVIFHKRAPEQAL
# Read-out: ligand displacement
# Tested at: 10 µM
SMILES,inhibition
O=C(Nc1ccc(Oc2ccc(F)cc2)cc1)N1CCc2ncccc2[C@H]1c1ccc(F)cc1,-3.47%
CC[C@H](CC(=O)O)n1c(=O)c2ncccc2n(Cc2cn(C)c3cc(C)cc(C)c23)c1=O,23.8%
CCOc1ccc(S(=O)(=O)Nc2ccc(Cl)cc2C#Cc2cnc(C(=O)O)cc2OC)c2ncccc12,9.34%
CN1CCN(c2ccnc(NCCc3ccccc3)n2)CC1,-3.28%
CCC(F)(F)c1cc(N2CCC(S(C)(=O)=O)CC2)nc2sc(C(N)=O)c(N)c12,21.1%

# Some of these lines once more (study 4):
Modification,mean fluorescence intensity [a.u.]
2'F-ANA at 2 5 9 10 15,48.3
2'F-ANA at 2 5 6 7 8 9 14 15,46.5
2'F-ANA at 2 3 4 6 7 8 9 12 13,554
2'F-ANA at 1 3 4 5 6 7 9 10 11 13,46.7
2'F-ANA at 5 6 8 9 11 15,63.5
